# Experimental data collected from several papers.
# Each line is one published result; not all experiments were run side by side. Several values in a cell are separate wells, animals, samples, runs or records. Numbers after ± are the reported error.
SMILES,tested on,test,system,setting,scale,measurement,result
NC(=O)c1ncn([C@@H]2O[C@H](CO)[C@@H](O)[C@H]2O)c1N,,"binding, MIDAS equilibrium dialysis LC-MS",A2AR-BRIL thermostabilized,concentration not given,relative to: no-protein control,log2 fold change,-0.139
C[C@]1(O)CC[C@@]2(C)[C@@H](CC[C@@H]3[C@@H]2CC[C@]2(C)[C@@H]([N+](=O)[O-])CC[C@@H]32)C1,,,male NIH Swiss mice,"i.p., dose not given, 15 min before test, 6 Hz seizure model",,seizure protection,inactive
N=C(N)NCCC[C@H](NC(=O)CCCCCNC(=O)[C@H](CCCNC(=N)N)NC(=O)[C@H](CCCNC(=N)N)NC(=O)CCCCCNC(=O)[C@H](CCCNC(=N)N)NC(=O)[C@H](CCCNC(=N)N)NC(=O)CCCCCNC(=O)[C@H](CCCNC(=N)N)NC(=O)[C@H](CCCNC(=N)N)NC(=O)CCCCCNC(=O)[C@@H](N)CCCNC(=N)N)C(=O)NCCCCCC(=O)NCCC(=O)O,,broth microdilution,"29213, Mueller-Hinton broth","16 to 18 h, 37 °C",,MIC,96 µM
CC[C@H](C)[C@H](NC(=O)[C@H](Cc1ccccc1)NC(=O)[C@H](CCC(=O)O)NC(=O)[C@H](CCCNC(=N)N)NC(=O)[C@H](C)NC(=O)[C@H](C)NC(=O)[C@H](CCC(N)=O)NC(=O)[C@H](CCC(=O)O)NC(=O)[C@H](CCC(=O)O)NC(=O)[C@H](CC(C)C)NC(=O)[C@H](Cc1ccc(O)cc1)NC(=O)[C@H](CO)NC(=O)[C@H](CO)NC(=O)[C@@H](NC(=O)[C@H](CC(=O)O)NC(=O)[C@H](CO)NC(=O)[C@@H](NC(=O)[C@H](Cc1ccccc1)NC(=O)[C@@H](NC(=O)CNC(=O)[C@H](CCC(=O)O)NC(=O)[C@H](C)NC(=O)CCc1c[nH]cn1)[C@@H](C)O)[C@@H](C)O)C(C)C)C(=O)N[C@@H](C)C(=O)N[C@@H](Cc1c[nH]c2ccccc12)C(=O)N[C@@H](CC(C)C)C(=O)N[C@H](C(=O)N[C@@H](CCCNC(=N)N)C(=O)NCC(=O)N[C@@H](CCCNC(=N)N)C(=O)N[C@@H](CCCCNC(=O)COCCOCCNC(=O)COCCOCCNC(=O)CC[C@H](NC(=O)CCCCCCCCCCCCCCCCC(=O)O)C(=O)O)C(=O)NCC(=O)NCC(=O)N[C@@H](CO)C(=O)N[C@@H](CCCCNc1c(NCCCCCN(O)C(=O)CCC(=O)NCCCCCN(O)C(=O)CCC(=O)NCCCCCN(O)C(C)=O)c(=O)c1=O)C(=O)O)C(C)C [zirconium-89 labelled],,gamma counting,"rat, stomach-duodenum content","intravenous, 3 nmol/kg, 24 h",,tissue uptake,0.09 %ID/g
CC[C@H](C)[C@@H]1NC(=O)[C@H](CCCNC(=N)N)NC(=O)C[C@@H](c2cccc3ccccc23)NC(=O)[C@@H]2CSSC[C@H](NC(=O)C[C@@H](c3cccc4ccccc34)NC(=O)[C@H](CCCNC(=N)N)NC(=O)[C@@H]3CCCN3C(=O)[C@@H]3CCCN3C1=O)C(=O)N[C@@H](Cc1ccccc1)C(=O)N1CCC[C@H]1C(=O)N[C@@H](CC(=O)O)C(=O)N[C@@H](CC(=O)O)C(=O)N[C@@H](Cc1ccccc1)C(=O)N2,,immunohistochemistry,"Calu-3 NSCLC xenograft, athymic Foxn1 nude mouse","oral, 50 mg/kg",relative to: vehicle,EGFR expression,decreased
CS(=O)(=O)c1ccc(-c2nnc(/C=C/c3nnc(-c4ccc(C#N)cc4)o3)n2-c2ccccc2Cl)nc1,,"RNA-seq GSEA, refers to: HALLMARK_NOTCH_SIGNALING","organoids, small intestinal, Apc Q1405X, mouse","dose not given, wild-type organoids","relative to: DMSO, direction not given",normalized enrichment score,-1.26
CC[C@H](C)[C@H](NC(=O)[C@H](CCCNC(=N)N)NC(=O)[C@H](CO)NC(=O)[C@H](Cc1ccc(O)cc1)NC(=O)[C@@H](NC(=O)[C@@H](NC(=O)[C@H](C)NC(=O)CNC(=O)[C@H](CCCCN)NC(=O)[C@@H](N)CCCCN)C(C)C)[C@@H](C)O)C(=O)N[C@@H](CO)C(=O)NCC(=O)N[C@@H](CCC(N)=O)C(=O)N[C@@H](Cc1ccc(O)cc1)C(=O)N[C@@H](CCCCN)C(=O)O,,broth microdilution,"168, Mueller-Hinton broth","16 to 18 h, 37 °C",,MIC,> 96 µM
CC[C@H](C)[C@@H]1NC(=O)[C@@H]2CCCN2C(=O)[C@H](CC(C)C)NC(=O)[C@H](CC(C)C)NC(=O)CNC(=O)[C@@H](NC(=O)[C@@H](NC(=O)[C@H](CC(=O)O)NC(=O)CNC(=O)[C@@H](NC(=O)[C@H](C)NC(=O)CNC(=O)[C@H](CCCCN)NC(=O)[C@H](CC(C)C)NC(=O)[C@H](CC(C)C)NC(=O)[C@H](CCCCN)NC(=O)CNC(=O)[C@@H](NC(=O)[C@@H](N)CC(C)C)C(C)C)C(C)C)C(C)C)CSSC[C@@H](C(=O)O)NC1=O,,"RNA-seq, refers to: Igtp mRNA","mouse traumatic brain injury, frontal cortex and hippocampus",dose not given,relative to: TBI plus compound vs TBI,log2 fold change,-2.36
COc1cc(N2CC[C@@]3(O)C(=O)c4cc(C)c(C)cc4N=C23)ccn1,,methamphetamine place preference,mouse,intraperitoneal,,lowest effective dose,0.5 mg/kg
CO[C@H]1C[C@@H]2CC[C@@H](C)[C@@](O)(O2)C(=O)C(=O)N2CCCC[C@H]2C(=O)O[C@H]([C@H](C)C[C@@H]2CC[C@@H](OC(=O)NCCOCCOCCOCCOCCOCCOCCOCCOCCC(=O)N3CCc4cc(Cn5nc(-c6ccc7oc(N)nc7c6)c6c(N)ncnc65)ccc4C3)[C@H](OC)C2)C[C@@H](O)[C@H](C)/C=C(\C)[C@@H](O)[C@@H](OC)C(=O)[C@H](C)C[C@H](C)/C=C/C=C/C=C/1C,,,patients with advanced solid tumours,"intravenous, 12 mg weekly, grade 3 or higher",,fatigue incidence,0%
C[C@H]1O[C@@H](O[C@H]2CC[C@@]3(C)[C@@H](CC[C@]4(C)[C@@H]3C=C[C@]35OC[C@@]6(CCC(C)(C)C[C@H]63)[C@@H](O)C[C@]54C)[C@]2(C)CO)[C@H](O)[C@@H](O[C@@H]2O[C@H](CO)[C@@H](O)[C@H](O)[C@H]2O)[C@H]1O,,,"mouse, ethanol-fed, hepatic SIRT1 knockdown","dose not given, high dose, during treatment",,body weight change,-0.7 g and -0.2 g and -0.9 g and -0.5 g and 0 g and -1.4 g
COc1cc(Nc2ncc(F)c(Nc3ccc4c(n3)NC(=O)C(C)(C)O4)n2)cc(OC)c1OC,"Type-1 angiotensin II receptor (AGTR1, Homo sapiens, UniProt P30556)",,,,,IC50,> 10 µM
C[C@H]1CN(c2n[nH]c3nc(N[C@H]4CC[C@H](NS(=O)(=O)CCC(F)(F)F)CC4)ncc23)CCO1,"Non-selective voltage-gated ion channel VDAC2 (Homo sapiens, UniProt P45880)","Kinobeads competition, refers to: VDAC2",,"0.8 µM, unit not given",relative to: vehicle,remaining binding,1.14
CCOCc1nc(O)c(-c2nnc(Cc3ccc(Cl)cn3)o2)c(O)c1-c1c(OC)cccc1OC,,,renal hypertensive rat,"sc infusion, 0.192 mg/kg/day, repeat dosing",relative to: vehicle,cardiac output change,38%
OC(c1cc(C(F)(F)F)nc2c(C(F)(F)F)cccc12)C1CCCCN1 (stereo not drawn),Plasmodium falciparum,,3D7,,,IC50,0.015 µM
O=c1c(O)c(-c2ccc(O[C@@H]3O[C@H](CO)[C@@H](O)[C@H](O)[C@H]3O)c(O)c2)oc2cc(O)cc(O)c12,,,,,,ABTS radical scavenging,1.21 trolox equivalents
C[C@]1(CO)Cc2ncn(-c3ccc(C#N)c(Cl)c3)c2C(=O)O1,,,human,40 mg single dose,,urinary sodium excretion Ae(0-24h),298 mmol
NCC(O)C1CCCCCCC1 (stereo not drawn),Plasmodium falciparum,,W2,,,IC50,3.16 µM
CCCCC1(CCCC)CN(c2ccccc2)c2cc(SC)c(OCC(=O)N[C@@H](C(=O)NCC(=O)O)c3ccccc3)cc2S(=O)(=O)C1,,refers to: LDL cholesterol,"human, serum","2.5 mg once daily, day 2",,serum LDL-C,108 mg/dL
O=C(c1ccc(C#Cc2cccc(F)c2)nc1)N1CCC(O)CC1,,,rat hippocampal CA3 slices,"10 µM, 10 min, spontaneous epileptiform activity",relative to: baseline,population spike amplitude,99.4 ± 3.9%
CN1CCN(S(=O)(=O)c2cc([N+](=O)[O-])ccc2N(CCOS(C)(=O)=O)CCOS(C)(=O)=O)CC1,,,"NSG mice, sample CJ PDX","intraperitoneal, 25 mg/kg weekly x3",,event-free survival,> 156 days

# Excerpt of the above:
SMILES,tested on,test,system,setting,scale,measurement,result
CC[C@H](C)[C@H](NC(=O)[C@H](CCCNC(=N)N)NC(=O)[C@H](CO)NC(=O)[C@H](Cc1ccc(O)cc1)NC(=O)[C@@H](NC(=O)[C@@H](NC(=O)[C@H](C)NC(=O)CNC(=O)[C@H](CCCCN)NC(=O)[C@@H](N)CCCCN)C(C)C)[C@@H](C)O)C(=O)N[C@@H](CO)C(=O)NCC(=O)N[C@@H](CCC(N)=O)C(=O)N[C@@H](Cc1ccc(O)cc1)C(=O)N[C@@H](CCCCN)C(=O)O,,broth microdilution,"168, Mueller-Hinton broth","16 to 18 h, 37 °C",,MIC,> 96 µM
CC[C@H](C)[C@@H]1NC(=O)[C@@H]2CCCN2C(=O)[C@H](CC(C)C)NC(=O)[C@H](CC(C)C)NC(=O)CNC(=O)[C@@H](NC(=O)[C@@H](NC(=O)[C@H](CC(=O)O)NC(=O)CNC(=O)[C@@H](NC(=O)[C@H](C)NC(=O)CNC(=O)[C@H](CCCCN)NC(=O)[C@H](CC(C)C)NC(=O)[C@H](CC(C)C)NC(=O)[C@H](CCCCN)NC(=O)CNC(=O)[C@@H](NC(=O)[C@@H](N)CC(C)C)C(C)C)C(C)C)C(C)C)CSSC[C@@H](C(=O)O)NC1=O,,"RNA-seq, refers to: Igtp mRNA","mouse traumatic brain injury, frontal cortex and hippocampus",dose not given,relative to: TBI plus compound vs TBI,log2 fold change,-2.36
